Results pooled from the literature.
A part holds a random share of what one study measured. Changes are numbered by the printed parent chain.

Study 1 — technique: competition protein-binding microarray; molecule type: double-stranded DNA, one strand shown; sample: in vitro; tested at: 2 µM; added: Cbf1 competitor, 0.05 µM; reading: higher = stronger binding; all sequences stand within: … GTCTTGATTCGCTTGACGCTGCTG
Target: Phosphate system positive regulatory protein PHO4, full length, GST-tagged (PHO4, Saccharomyces cerevisiae, UniProt P07270, residues 1-312)
Setting: whole 60-bp probe, lowest competitor level
Target sequence (chain): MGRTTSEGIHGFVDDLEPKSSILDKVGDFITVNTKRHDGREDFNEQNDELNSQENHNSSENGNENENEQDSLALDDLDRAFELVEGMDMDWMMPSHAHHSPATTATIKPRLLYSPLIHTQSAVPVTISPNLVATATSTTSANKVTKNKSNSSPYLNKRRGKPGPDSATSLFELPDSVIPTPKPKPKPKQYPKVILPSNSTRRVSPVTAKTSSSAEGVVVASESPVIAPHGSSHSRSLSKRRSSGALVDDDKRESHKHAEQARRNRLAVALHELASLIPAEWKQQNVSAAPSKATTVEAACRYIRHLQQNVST
With `GAAAGAGTGGCTTATCATGTGTAATAGGCGAATAAG` the fluorescence intensity was 6680 a.u.
With `CTTCTGTAAATTTGTATCGTGGGTGGACGCGCCCCG` the fluorescence intensity was 7320 a.u.
With `CTTTCCCGATCTTGACTTGTGGGTGTAGCACATTTG` the fluorescence intensity was 4870 a.u.
`CGTCCTAGTGATTGTCACGAAACTTCCATGAGGAAG` has a fluorescence intensity of 4820 a.u.
`GCGCTTGCATCGCTGCATGTGTTAACCGAAAAGTTT` has a fluorescence intensity of 7600 a.u.
For `AAAGCGGTAATTTGAGAGGTGGGTGCAGATATCTAT`, the fluorescence intensity was 4220 a.u.
`GTCTTGTCTCATTGTCACCTGACTTTCCCCACTTCA` has a fluorescence intensity of 4380 a.u.
`CATACCCAACCTTGGTTGGTGGGTGAAGATATTTGT` has a fluorescence intensity of 3430 a.u.
`GGGTACTGGTGCCGTCACGTGTGGACCATCTAATTC` gave a fluorescence intensity of 13700 a.u.
With `CCTACCATTGCATCGGGCGTGATGGTACACCAACCA` the fluorescence intensity was 5180 a.u.
The fluorescence intensity of `CTTCTGTAAATTTTTCACGTGCTTTGACGCGCCCCG` is reported as 14500 a.u.
With `GTCTTGTCTCATTTTCACGTGTAATTCCCCACTTCA` the fluorescence intensity was 10900 a.u.
For `GTCTTGTCTCATTGGATTGTGGGTGTCCCCACTTCA`, the fluorescence intensity was 5860 a.u.
For `CGTCCTAGCGATTGACACGTGTTTTCCATGAGGAAG`, the fluorescence intensity was 16900 a.u.

Study 2 — target: CCND2, cyclin fold, Cln2 fusion (human); technique: yeast growth competition, sequencing; sample: yeast; setting: weak parent motif; relative to: not given; reading: higher = stronger binding
Starting sequence: DBF4B docking peptide (human); LGYLYLLLTQSLW
For `T9A`, “normalised enrichment score” read -0.0109.
Under “normalised enrichment score”, `Y3A` is recorded as -0.621.
`L6A`: “normalised enrichment score” -0.809.
`L1A`: “normalised enrichment score” -0.0155.
`L7A` — result for “normalised enrichment score”: -0.668.
For `W13A`, “normalised enrichment score” read -0.568.

Study 3 — technique: DHFR PCA, deep sequencing; sample: yeast; added: (+)-ABA 0.39 µM; relative to: wild-type fitted maximum; reading: higher = stronger binding
Target: ABI1, truncated, D143A, DHFR fusion (Arabidopsis thaliana)
Setting: methotrexate growth selection, single substitutions
Starting sequence: PYL1, truncated, DHFR fusion (Arabidopsis thaliana); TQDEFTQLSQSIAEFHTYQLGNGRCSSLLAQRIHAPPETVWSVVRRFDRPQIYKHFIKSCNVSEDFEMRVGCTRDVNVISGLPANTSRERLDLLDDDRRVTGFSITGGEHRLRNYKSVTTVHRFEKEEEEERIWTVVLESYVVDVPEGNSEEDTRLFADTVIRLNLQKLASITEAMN; partner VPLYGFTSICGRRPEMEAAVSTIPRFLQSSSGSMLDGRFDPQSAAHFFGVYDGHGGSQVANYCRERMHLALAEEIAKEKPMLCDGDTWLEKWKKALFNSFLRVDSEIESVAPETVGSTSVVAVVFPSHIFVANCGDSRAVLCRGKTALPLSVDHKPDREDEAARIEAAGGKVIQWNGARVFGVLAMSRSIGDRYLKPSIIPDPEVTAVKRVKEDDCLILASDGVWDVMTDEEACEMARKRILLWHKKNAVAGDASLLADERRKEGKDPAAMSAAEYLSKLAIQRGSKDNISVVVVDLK
For `V142G`, “relative binding score” read -5.75%.
Under “relative binding score”, `K54I` is recorded as -8.59%.
`T39A` — result for “relative binding score”: 33.2%.
For `V76F`, “relative binding score” read -8.45%.
`F124P`: “relative binding score” -8.09%.
`E130I` — result for “relative binding score”: 30.6%.
`R113C` — result for “relative binding score”: 9.89%.

Further values, each from its own experiment
With `PhoQ, residues 284 288 289 292 302 303 SSTLLI` the fold induction was 1.15 (PhoP, residues 12 14 15 18 19 NQAHL (Escherichia coli, UniProt P23836); Sort-seq, refers to: YFP reporter; E. coli; PhoQ-PhoP variant library, added: 10 µM Mg2+; relative to: high Mg2+ state, higher = stronger signaling).

Some of these lines once more (study 2):
`L6A`: “normalised enrichment score” -0.809.
`L1A`: “normalised enrichment score” -0.0155.
